{"data": "Measurements from different studies", "note": "Lines come from different studies, so protocols differ. “And” joins repeats or separate records; there may be more than shown. Numbers after ± are the reported error."}
{"SMILES": "Cc1cccc2c1ccc1cc(C(C)C)ccc12", "target": "Aryl hydrocarbon receptor (Danio rerio, UniProt Q9YGV3)", "test": "reporter gene, agonist, luciferase reporter", "test system": "ZF-4", "conditions": "4.572 µM", "scale": "reference: vehicle control", "quantity": "fold change", "value": 0.847}
{"SMILES": "Nc1nc(=O)n([C@H]2C[C@H](O)[C@@H](CO)O2)cc1-c1ccco1", "target": "Cytidine deaminase (CDA, Homo sapiens, UniProt P32320)", "test": "deamination, substrate, real-time fluorescence", "conditions": "pH 7.4, 37 °C", "quantity": "kcat", "value": "2.5 to 3.3 s⁻¹"}
{"SMILES": "Cc1cc2c(cc1N1C(=O)c3cccc4c(Cl)ccc(c34)C1=O)n(C)c(=O)n2C", "target": "EP300 (Homo sapiens, UniProt Q09472)", "conditions": "10 µM", "quantity": "delta Tm", "value": "3.5 °C"}
{"SMILES": "Cc1cnc(Nc2ccc(C(=O)N3CCC(N4CCCC4)CC3)cc2)nc1-c1cc2ccccc2s1", "target": "Protein kinase 6 (Plasmodium falciparum, UniProt Q8IDW1)", "test": "binding, KinaseSeeker split luciferase", "quantity": "ligand efficiency", "value": 0.29}
{"SMILES": "C=CC(=O)N1CCC(COCC(=O)N2CCN(c3nc(-c4cnc(N)nc4C(F)F)nc(N4CCOC[C@@H]4C)n3)CC2)CC1", "target": "CDK16 (Homo sapiens, UniProt Q00536)", "test": "KINOMEscan", "conditions": "1 µM", "quantity": "remaining binding", "value": "90%"}
{"SMILES": "CCCCCCCCCCCCC/C=C/[C@@H](O)[C@H](CO)NC(=O)CCCCCCCCCCCCCCCCCCCCC", "target": "Protein SET (SET, Homo sapiens, UniProt Q01105)", "test": "lipid binding, GFP pull-down LC-MS/MS", "test system": "A549 overexpressing GFP-tagged protein", "conditions": "unit not given", "scale": "reference: vector-transfected cells", "quantity": "bound endogenous lipid", "value": 5.2}
{"SMILES": "[Cl-].[K+]", "target": "GUK1 (Homo sapiens, UniProt Q16774)", "test": "enzyme activity, NADH-coupled", "conditions": "30 mM", "quantity": "reaction velocity", "value": "0.0522 µM/s and 0.0456 µM/s and 0.0519 µM/s"}
{"SMILES": "c1ccc(-n2ccc3cnc(Nc4ccc(N5CCOCC5)cc4)nc32)nc1", "target": "Aurora kinase (ark1, Schizosaccharomyces pombe, UniProt O59790)", "test system": "Schizosaccharomyces pombe cells, MDR-sup", "conditions": "5 µM", "quantity": "reduction of histone H3 Ser10 phosphorylation", "value": "~90%"}
{"SMILES": "[H]/N=C(/N)NCC(=O)O", "target": "SLC6A6 (Homo sapiens, UniProt P31641, L306A)", "test": "binding, microscale thermophoresis", "conditions": "30.5 nM, room temperature, with: 50 nM labelled protein", "scale": "higher = more binding", "quantity": "normalised MST signal", "value": 0.0521}
{"SMILES": "C[C@H]1CCN(c2nccc(-c3cnn4ncccc34)n2)C1", "target": "ABL1 (Homo sapiens, UniProt P00519, F317I)", "conditions": "1 µM", "scale": "reference: control", "quantity": "remaining binding", "value": "59% and 85%"}
{"SMILES": "N#Cc1ccc2[nH]cc(CCCCN3CCN(c4ccc5oc(C(N)=O)cc5c4)CC3)c2c1", "target": "SLC6A4 (Homo sapiens, UniProt P31645, S438T)", "test": "[3H]5-HT uptake, inhibitor", "test system": "COS-7", "quantity": "Hill coefficient", "value": "0.98 ± 0.11"}
{"SMILES": "CN(CCCCCCNC(=O)COc1ccc(C2CCC(=O)NC2=O)cc1)Cc1cn(Cc2ccc(C(=O)NO)cc2)c2ccccc12.O=C(O)C(F)(F)F (stereo not drawn)", "target": "HDAC6 (Homo sapiens, UniProt Q9UBN7)", "test": "degrader, western blot", "test system": "MM1.S", "conditions": "1 µM, 24 h", "quantity": "degradation", "value": "96%"}
{"SMILES": "Cc1cccc(N2CC(C(=O)O)CC2=O)c1 (stereo not drawn)", "target": "DDB1- and CUL4-associated factor 7 (Homo sapiens, UniProt P61962)", "test": "binding, affinity selection mass spectrometry", "scale": "reference: other proteins in batch", "quantity": "log fold enrichment", "value": -0.102}
{"SMILES": "CNC[C@H](O)c1cccc(O)c1", "target": "ADRA1D (Homo sapiens, UniProt P25100)", "test": "calcium mobilization, agonist", "test system": "COS-7, stably expressing receptor", "scale": "reference: 3 µM ionomycin", "quantity": "Emax", "value": "~25%"}
{"SMILES": "CC(C)C[C@H](NC(=O)CNC(=O)c1cc(Cl)ccc1Cl)B(O)O", "target": "Proteasome component C5/PSMB8 (Homo sapiens, UniProt P20618+P28062)", "test": "inhibitor, jump dilution", "conditions": "1 h", "quantity": "reversibility", "value": "53 ± 7.6%"}
{"note": "Some of these lines once more:"}
{"SMILES": "CNC[C@H](O)c1cccc(O)c1", "target": "ADRA1D (Homo sapiens, UniProt P25100)", "test": "calcium mobilization, agonist", "test system": "COS-7, stably expressing receptor", "scale": "reference: 3 µM ionomycin", "quantity": "Emax", "value": "~25%"}
{"SMILES": "C[C@H]1CCN(c2nccc(-c3cnn4ncccc34)n2)C1", "target": "ABL1 (Homo sapiens, UniProt P00519, F317I)", "conditions": "1 µM", "scale": "reference: control", "quantity": "remaining binding", "value": "59% and 85%"}
